# Results pooled from the literature.
# ± gives the spread as reported.
# Target: Cholinesterase (BCHE, Equus caballus, UniProt P81908)
# Sequence of UniProt P81908 (whole entry, looked up): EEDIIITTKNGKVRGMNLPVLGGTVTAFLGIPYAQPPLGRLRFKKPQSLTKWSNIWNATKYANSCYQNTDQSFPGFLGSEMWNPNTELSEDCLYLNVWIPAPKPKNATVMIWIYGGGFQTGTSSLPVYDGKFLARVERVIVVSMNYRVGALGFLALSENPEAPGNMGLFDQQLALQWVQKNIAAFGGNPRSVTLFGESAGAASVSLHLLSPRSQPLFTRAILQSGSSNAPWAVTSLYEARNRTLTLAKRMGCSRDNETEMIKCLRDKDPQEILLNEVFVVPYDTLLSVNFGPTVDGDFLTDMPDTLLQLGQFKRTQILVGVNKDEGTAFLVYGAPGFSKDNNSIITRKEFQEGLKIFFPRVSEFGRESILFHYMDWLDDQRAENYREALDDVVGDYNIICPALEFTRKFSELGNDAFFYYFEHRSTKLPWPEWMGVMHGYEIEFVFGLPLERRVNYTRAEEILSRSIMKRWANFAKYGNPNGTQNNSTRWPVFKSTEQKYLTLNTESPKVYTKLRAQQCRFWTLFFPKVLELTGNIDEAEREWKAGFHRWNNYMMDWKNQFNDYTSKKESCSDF
Structure (SMILES),test,test system,conditions,inhibition
COC(=O)C1=CO[C@@H](OC(C)=O)[C@@H]2C(Cn3cc(CCBr)nn3)=CC[C@H]12,inhibitor,horse serum BuChE,10000 µM,97.34 ± 0.18%
O=C(/C=C/c1ccc(O)cc1)OC[C@H]1O[C@@H](Oc2c(-c3ccc(O)cc3)oc3cc(O)cc(O)c3c2=O)[C@H](O)[C@@H](OC(=O)/C=C/c2ccc(O)cc2)[C@@H]1O,"enzyme activity, inhibitor, Ellman",,100 µg/mL,52.1%
O=C(O)c1cccc(Nc2cc(N3CCN(c4cccc(C(F)(F)F)c4)CC3)c3noc4c3c2C(=O)c2ccccc2-4)c1,,,10 µM,< 0%
COC(=O)C1=CO[C@@H](O)[C@@H]2C(Cn3cc(CN4C(=O)c5ccccc5C4=O)nn3)=CC[C@H]12,inhibitor,horse serum BuChE,10000 µM,81.22 ± 0.38%
CCCCCc1nc2ccc(/N=N/c3ccc([N+](=O)[O-])cc3)cc2c(-c2ccccc2)c1I,"enzyme activity, inhibitor",,100 µM,40.5%
COc1ccnc(Nc2c3c(nc4ccccc24)CCCC3)c1,"enzyme activity, inhibitor",,100 µM,110%
O=C(O)Cc1cccc(OC(=O)NCCCCCn2ccc3ccc(F)cc32)c1,"enzyme activity, inhibitor, HPLC",,10 µM,42%
O=C(O)CCCN1C(=O)/C(=C/c2cn(-c3ccccc3)nc2-c2ccc(OCc3ccccc3F)cc2)SC1=S,,,10 µM,< 0%
COC(=O)C1=CO[C@@H](O)[C@@H]2C(Cn3cc(-c4ccc(F)cc4)nn3)=CC[C@H]12,inhibitor,horse serum BuChE,10000 µM,84.64 ± 0.12%
FC(F)(F)c1cccc(Nc2c3c(nc4ccccc24)CCCC3)c1,"enzyme activity, inhibitor",,100 µM,-60.9%
COC(=O)C1=CO[C@@H](OC(C)=O)[C@@H]2C(Cn3cc(CON4C(=O)c5ccccc5C4=O)nn3)=CC[C@H]12,inhibitor,horse serum BuChE,10000 µM,27.29 ± 0.17%
c1ccc2nc(Nc3c4c(nc5ccccc35)CCCC4)ccc2c1,"enzyme activity, inhibitor",,50 µM,105%
COC(=O)C1=CO[C@@H](OC(C)=O)[C@@H]2C(Cn3cc(CCO[Si](C)(C)C(C)(C)C)nn3)=CC[C@H]12,inhibitor,horse serum BuChE,10000 µM,9.03 ± 0.3%
COc1ccnc(Nc2c3c(nc4ccc(Cl)cc24)CCCC3)c1,"enzyme activity, inhibitor",,50 µM,< -200%
Cc1ccc(-c2nc3ccc(/N=N/c4ccc([N+](=O)[O-])cc4)cc3c(-c3ccccc3)c2I)cc1,"enzyme activity, inhibitor",,100 µM,no inhibition
O=S(=O)(F)CCc1cn(-c2cccc(Cl)c2)nn1,Ellman,horse,20 µM,71.5%
c1cc(Nc2c3c(nc4ccccc24)CCCC3)c2cccnc2c1,"enzyme activity, inhibitor",,50 µM,-107%
COC(=O)C1=CO[C@@H](O)[C@@H]2C(Cn3cc(C4(O)CCCCC4)nn3)=CC[C@H]12,inhibitor,horse serum BuChE,10000 µM,32 ± 0.74%
COc1ccc(Nc2c3c(nc4ccccc24)CCCC3)cc1,"enzyme activity, inhibitor",,100 µM,-106%
CCOC(=O)/C=C/c1c(-c2ccc(C)cc2)nc2ccc(/N=N/c3ccc([N+](=O)[O-])cc3)cc2c1-c1ccccc1,"enzyme activity, inhibitor",,100 µM,39.7%

# Excerpt of the above:
Structure (SMILES),test,test system,conditions,inhibition
c1cc(Nc2c3c(nc4ccccc24)CCCC3)c2cccnc2c1,"enzyme activity, inhibitor",,50 µM,-107%
